# Measured values gathered from unrelated publications.
# Lines come from different studies, so protocols differ. Values joined by “and” are separate records of one study, mostly repeats; a detail may differ.
Structure (SMILES),organism,assay,test system,setting,MIC
CC[C@@H](C)[C@@H](NC(=O)[C@@H](C)N)C(=O)N[C@H](CCCCN)C(=O)N[C@@H](C(=O)N[C@H](CCCNC(=N)N)C(=O)N[C@H](CCCCN)C(=O)N[C@H](CC(C)C)C(=O)N[C@H](Cc1ccccc1)C(=O)N[C@H](CCCCN)C(=O)N[C@H](CCCCN)C(=O)N[C@H](CC(C)C)C(=O)N[C@H](CC(C)C)C(=O)N[C@H](CCCNC(=N)N)C(N)=O)[C@H](C)CC,Escherichia coli,broth microdilution checkerboard,"ATCC 25922, LB medium",with: levofloxacin,6.25 µg/mL
CCCCCC1CC2CCCC3CC(C)N=C(N1)N32 (centres unmarked),Candida krusei,fungal growth,ATCC 6258,,15 µM and 15.9 µM
CC(C=CC(O)=C1C(=O)CNC1=O)=CC(C)C1OC2(C)OC(C(=O)C(O)C2(C)O)C1C (centres unmarked),Bacillus cereus,,,,> 100 µM
CCCCCCCCCCCCCCCCCCSCC1OC(OC2C(N)CC(N)C(OC3OC(CN)C(O)CC3N)C2O)C(O)C(N)C1O (centres unmarked),Salmonella enterica,,ATCC 14028,,> 150 µg/mL
O=[N+]([O-])c1ccc2c(c1)C=[N+]1N3C(=[O+][Cu-2]1([Cl])[O]2)c1ccccc1NC3c1cc([N+](=O)[O-])ccc1O (centres unmarked),Mycobacterium kansasii,broth microdilution,DSM 44162,7 days,128 µg/mL
CNC1=C([N+](=O)[O-])C2(C(=O)Nc3ccc(Cl)cc32)C2=C(O1)C(=O)c1ccccc1C2=O (centres unmarked),Salmonella enterica,"microbial growth, broth dilution",TYPHIMURIUM,,250 µg/mL
N#Cc1ccc2cccc(O)c2n1,Salmonella enterica,"microbial growth, agar dilution",ATCC13311 TYPHIMURIUM,,> 1500 µM
CC[C@@H](C)[C@@H](NC(=O)[C@@H](C)NC(=O)[C@@H](CCCCN)NC(=O)[C@@H](CC(C)C)NC(=O)[C@@H](CC(C)C)NC(=O)[C@H](NC(=O)[C@@H](CCCCN)NC(=O)[C@@H](CC(C)C)NC(=O)[C@@H](CCCCN)NC(=O)[C@@H](CCCCN)NC(=O)[C@@H](CCCCN)NC(=O)[C@@H](CCCCN)NC(=O)[C@@H](C)NC(=O)[C@@H](CCCCN)NC(=O)[C@@H](CO)NC(=O)[C@@H](Cc1ccccc1)NC(=O)[C@H](NC(=O)[C@@H](CCCCN)NC(=O)[C@@H](CC(C)C)NC(=O)[C@@H](Cc1ccccc1)NC(=O)[C@@H](CO)NC(=O)[C@@H](CCCCN)NC(=O)[C@@H](Cc1c[nH]c2ccccc12)NC(=O)[C@@H](CCCCN)NC(C)=O)[C@H](C)O)[C@H](C)O)C(=O)N[C@H](CO)C(=O)N[C@H](CCCCN)C(N)=O,Acinetobacter baumannii,,"821, Mueller-Hinton broth","24 h, 37 °C",1.2 µM
COc1c2c(cc3oc(=O)cc(-c4ccc(Cl)cc4)c13)C(=O)c1cc(C)cc(O)c1C2=O,Bacillus cereus,microbial growth,,,64 µg/mL
CC[C@@H](C)[C@@H](NC(=O)[C@@H](C)NC(=O)[C@@H](CCCCN)NC(=O)[C@@H](CC(C)C)NC(=O)[C@@H](C)NC(=O)[C@H](NC(=O)[C@@H](CCCCN)NC(=O)[C@@H](CC(C)C)NC(=O)[C@H](NC(=O)[C@@H](CCCCN)NC(=O)[C@@H](CCCCN)NC(=O)[C@@H](CCCCN)NC(=O)[C@@H](C)NC(=O)[C@@H](CCCCN)NC(=O)[C@@H](CO)NC(=O)[C@@H](Cc1ccccc1)NC(=O)[C@H](NC(=O)[C@@H](CCCCN)NC(=O)[C@@H](CC(C)C)NC(=O)[C@@H](Cc1ccccc1)NC(=O)[C@@H](CO)NC(=O)[C@@H](CCCCN)NC(=O)[C@@H](Cc1c[nH]c2ccccc12)NC(=O)[C@@H](CCCCN)NC(C)=O)[C@H](C)O)C(C)C)[C@H](C)O)C(=O)N[C@H](CO)C(=O)N[C@H](CCCCN)C(N)=O,Acinetobacter baumannii,,"759, Mueller-Hinton broth","24 h, 37 °C",0.3 µM
CCCCCCCCCC1CC2CCCC3CC(CCCCCCCCC)NC(=N1)N23 (centres unmarked),Candida krusei,fungal growth,ATCC 6258,,2.9 µM
CC[C@@H](C)[C@@H](NC(=O)[C@@H](C)NC(=O)[C@@H](CCCCN)NC(=O)[C@@H](CC(C)C)NC(=O)[C@@H](CC(C)C)NC(=O)[C@H](NC(=O)[C@@H](CCCCN)NC(=O)[C@@H](CC(C)C)NC(=O)[C@@H](C)NC(=O)[C@@H](CCCCN)NC(=O)[C@@H](CCCCN)NC(=O)[C@@H](CCCCN)NC(=O)[C@@H](C)NC(=O)[C@@H](CCCCN)NC(=O)[C@@H](CO)NC(=O)[C@@H](Cc1ccccc1)NC(=O)[C@H](NC(=O)[C@@H](CCCCN)NC(=O)[C@@H](CC(C)C)NC(=O)[C@@H](Cc1ccccc1)NC(=O)[C@@H](CO)NC(=O)[C@@H](CCCCN)NC(=O)[C@@H](Cc1c[nH]c2ccccc12)NC(=O)[C@@H](CCCCN)NC(C)=O)[C@H](C)O)[C@H](C)O)C(=O)N[C@H](CO)C(=O)N[C@H](CCCCN)C(N)=O,Acinetobacter baumannii,,"649, Mueller-Hinton broth","24 h, 37 °C",1.3 µM
COc1ccccc1NC(=O)OC1C(C)C(OC)C=COC2(C)Oc3c(C)c(O)c4c(c3C2=O)C2=NC3(CCN(CC(C)C)CC3)NC2=C(NC(=O)C(C)=CC=CC(C)C(O)C(C)C(O)C1C)C4=O (centres unmarked),Mycobacteroides abscessus,microbial growth,ATCC19977,,0.017 µM
CC(=O)N[C@H](CCCCN)C(=O)N[C@H](CC(C)C)C(=O)N[C@H](CCCCN)C(=O)N[C@H](CO)C(=O)N[C@H](CC(C)C)C(=O)N[C@H](CC(C)C)C(=O)N[C@H](CCCCN)C(=O)N[C@@H](C(=O)N[C@H](CC(C)C)C(=O)N[C@H](CO)C(=O)N[C@H](CCCCN)C(=O)N[C@H](C)C(=O)N[C@H](CCCCN)C(=O)N[C@H](CCCCN)C(=O)N[C@H](CCCCN)C(=O)N[C@H](CCCCN)C(=O)N[C@H](CC(C)C)C(=O)N[C@H](CCCCN)C(=O)N[C@@H](C(=O)N[C@H](CC(C)C)C(=O)N[C@H](CC(C)C)C(=O)N[C@H](CCCCN)C(=O)N[C@H](C)C(=O)N[C@H](CC(C)C)C(=O)N[C@H](CO)C(=O)N[C@H](CCCCN)C(N)=O)[C@H](C)O)[C@H](C)O,Acinetobacter baumannii,,"899, Mueller-Hinton broth","24 h, 37 °C",0.3 µM
Cc1cc(O)cc2c1C(=O)c1c(cc3oc(=O)cc(-c4ccc(Cl)cc4)c3c1O)C2=O,Bacillus cereus,microbial growth,,,8 µg/mL
COC1C=COC2(C)Oc3c(C)c(O)c4c(c3C2=O)C2=NC3(CCN(CC(C)C)CC3)NC2=C(NC(=O)C(C)=CC=CC(C)C(O)C(C)C(O)C(C)C(OC(=O)Nc2cnccn2)C1C)C4=O (centres unmarked),Mycobacteroides abscessus,,ATCC 19977 wild type,90% growth inhibition,0.028 µM
Oc1c(Br)ccc2cccnc12,Salmonella enterica,"microbial growth, agar dilution",ATCC13311 TYPHIMURIUM,,35.7 µM

# Repeated from above:
Structure (SMILES),organism,assay,test system,setting,MIC
CCCCCC1CC2CCCC3CC(C)N=C(N1)N32 (centres unmarked),Candida krusei,fungal growth,ATCC 6258,,15 µM and 15.9 µM
CC(C=CC(O)=C1C(=O)CNC1=O)=CC(C)C1OC2(C)OC(C(=O)C(O)C2(C)O)C1C (centres unmarked),Bacillus cereus,,,,> 100 µM
CCCCCCCCCCCCCCCCCCSCC1OC(OC2C(N)CC(N)C(OC3OC(CN)C(O)CC3N)C2O)C(O)C(N)C1O (centres unmarked),Salmonella enterica,,ATCC 14028,,> 150 µg/mL
